Published values collected from several papers.
Every numbered part comes from another study and shows a few of its results, in no order. Changes are numbered by the printed parent chain.

Sample 1
Target: CEBPB, bZIP domain (human)
Technique: DHFR protein complementation
Sample: yeast
Notes: single substitutions, most at no-binding floor
Relative to: wild-type JUN-FOS pair
Direction: higher = stronger binding
Starting sequence: JUN, bZIP domain (human); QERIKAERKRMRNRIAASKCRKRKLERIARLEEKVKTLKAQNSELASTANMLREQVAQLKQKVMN; partner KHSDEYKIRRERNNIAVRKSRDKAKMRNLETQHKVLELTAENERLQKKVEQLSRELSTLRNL
| Substitution | binding fitness [natural log] |
| --- | --- |
| L38N | -1.5 |
| T37D | -0.982 |
| K36A | -1.2 |
| I28H | -1.26 |
| R53I | -1.38 |
| I28E | -1.09 |
| A49M | -1.36 |
| N42D | -1.58 |
| L52D | -1.45 |
| K34E | -1.36 |
| K34W | -1.42 |
| V56K | -1.52 |
| S43M | -1.35 |
| R30F | -1.35 |
| N42W | -1.54 |
| R53W | -1.22 |
| S47H | -1.33 |
| M51T | -1.24 |
| N42T | -1.43 |

Sample 2
Target: Histone acetyltransferase KAT6A, both winged helices, GST fusion (KAT6A, Homo sapiens, UniProt Q92794, residues 1-181)
Technique: protein binding microarray
Molecule type: double-stranded DNA, one strand shown
Sample: in vitro
Tested at: not given
Notes: 8-mer, flanks averaged, mean of 2 arrays, mostly near background
Relative to: not given
Direction: higher = stronger binding
Target sequence (chain): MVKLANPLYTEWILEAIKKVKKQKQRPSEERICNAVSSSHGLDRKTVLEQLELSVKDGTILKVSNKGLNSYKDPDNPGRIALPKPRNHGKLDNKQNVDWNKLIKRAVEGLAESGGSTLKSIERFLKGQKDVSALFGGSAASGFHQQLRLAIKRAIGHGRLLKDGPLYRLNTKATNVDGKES
| Oligonucleotide | E-score |
| --- | --- |
| ACAATGCG | 0.167 |
| CGACGGCC | 0.322 |
| CGGTAATC | 0.222 |
| ATAGGATA | -0.012 |
| AGATATAC | -0.15 |
| GGCAAGTA | -0.0737 |
| GCACTACA | -0.126 |
| TCTCCAAA | -0.185 |
| CCCTCCGA | -0.0155 |
| AGCGAAAT | -0.129 |
| ACCTTTCC | -0.0286 |
| GACAAAGC | 0.0595 |
| TTGTACAA | 0.00575 |
| GTCCAACA | -0.132 |
| AGATGGGA | -0.206 |
| CCCGCAAA | 0.139 |
| ATGCACCA | -0.0535 |
| ATGTGACA | 0.153 |
| AGGGAATG | -0.115 |
| ACGGTGGG | 0.0619 |
| GGATGGGA | -0.194 |
| ATACGAAT | -0.0171 |
| AGGCCCAG | -0.252 |
| TGATATCA | -0.234 |
| ATATAACG | -0.0341 |

Sample 3
Target: RNA binding protein fox-1 homolog 2, RRM domain, GST-SBP tag (RBFOX2, Homo sapiens, UniProt O43251-10, residues 100-194)
Technique: RNA Bind-n-Seq
Molecule type: RNA
Sample: in vitro
Tested at: 365 nM
Notes: natural RNA segment, single round, ends assumed
Relative to: no-protein control
Direction: higher = stronger binding
Construct (chain): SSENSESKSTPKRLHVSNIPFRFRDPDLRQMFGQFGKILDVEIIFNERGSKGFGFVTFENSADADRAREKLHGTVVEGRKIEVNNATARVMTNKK
| Oligonucleotide | RBNS enrichment (R) |
| --- | --- |
| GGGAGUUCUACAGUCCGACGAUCGCAAAAAGAUCUGUAUUUACACUCCUUCACCUAGGGAUGUGUUUGUUGCCCUCCUACCCAAUUGUCAUGAUUGUCCUUAGUACCCUAGGCCUAGAUUCUGAGAUCUUCCCUGGAAUUCUCGGGUGCCAA | 0.486 |
| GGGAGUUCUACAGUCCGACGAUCCCCGCCCAUUGCUUUGGAGCACAGAUGACUCUGGGGGCAGAGGUGGGCUCUGUUUAGGAGGGCAGUGAGACCACCCAGCCAAAUUGCUUCUCAACCCUAGACAAAGCCUUUGGAAUUCUCGGGUGCCAA | 0.594 |
| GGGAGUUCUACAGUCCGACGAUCCAGCUGGAGCUGAAGGCUCGAUCUUGUGAACCCCUAAAUCCGCUCCCUCCUAACAGCACGGAUUCUCUUGGGGCUCUUCUUCAGGGAAGAGUAGGGACGCCGUUCCAGCCUGGAAUUCUCGGGUGCCAA | 0.273 |
| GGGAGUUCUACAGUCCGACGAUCCCCCCUUAGUCAAUAGCUUGCGAAAGACAUCUUAACUCACCCUUGCAGAUAAGUCUUGGAGUGAAACAAAUAAAUAGCAUUGUAUUCCUGGCCAUUUGCCUGGCUAGUUGUGGAAUUCUCGGGUGCCAA | 0.506 |
| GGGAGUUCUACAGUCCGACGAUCAAUGGCUCGAAACACUUCUCAAAAGGAUAUACGUAUUGACCCCAACAAUAAAUGUUUGUGGCUAGUGCUUGUUUUUUGCUAUGUUGAUUCAGUGAAUGACCUAGAAGUCAUGGAAUUCUCGGGUGCCAA | 0.471 |
| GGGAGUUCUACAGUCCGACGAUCUUACAUUGUUAGGGAGCUGGUGAUUUUUUGCCAUGGUCGUAUCGUGGACAGCUUUUCCGUGGAAAUUCAAGGCAUCUGUAUUAGGCAAAUGUGAGUGCCCUUGAUCUUGUUGGAAUUCUCGGGUGCCAA | 0.819 |
| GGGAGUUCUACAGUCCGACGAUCAUAAACAUCACUGCACUGUGACUGGUGGGGAAAACUGACAGCUUCCUGUUUGUACACAUUUGACAUUGGCUGUUAUAAUAUAUGGUCCUCAGUUGGGGAAGACACUUAGAUGGAAUUCUCGGGUGCCAA | 0.606 |
| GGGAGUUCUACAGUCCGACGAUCACACAUGACCUUGGAGCCUCUUGGCCUUCAGAGCAGAGGCAAACCCACCACAGGGCAGCUGCGUUUUAGGAAGAGCAAAUGAAACUCCACACCAUUCUUCUAGAUCUCUGUGGAAUUCUCGGGUGCCAA | 0.301 |

Sample 4
Target: PABPC1L2, full length, GST fusion (mouse, UniProt A0ABA7IW68)
Technique: RNAcompete
Molecule type: RNA
Sample: in vitro
Tested at: 20 nM
Notes: 7-mer, probes averaged, single round
Relative to: mean of 7-mers
Direction: higher = stronger binding
Target sequence (chain): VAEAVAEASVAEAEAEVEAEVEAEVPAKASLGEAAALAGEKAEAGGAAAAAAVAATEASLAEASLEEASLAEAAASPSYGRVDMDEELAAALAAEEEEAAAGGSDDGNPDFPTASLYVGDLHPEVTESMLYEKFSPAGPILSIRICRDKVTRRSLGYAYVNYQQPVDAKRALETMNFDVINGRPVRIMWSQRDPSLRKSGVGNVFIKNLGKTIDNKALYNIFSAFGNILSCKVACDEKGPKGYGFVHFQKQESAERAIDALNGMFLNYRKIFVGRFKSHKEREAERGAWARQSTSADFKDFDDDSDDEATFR
| Oligonucleotide | 7-mer Z-score |
| --- | --- |
| ACCUUCC | -0.394 |
| CUUUGCG | -0.411 |
| UCCAAAA | 3.99 |
| ACUUGUC | -0.364 |
| CAUACGA | -0.0101 |
| UCAGUAA | 0.0189 |
| AUUUUGA | -0.0645 |
| GACAGAC | -0.00289 |
| ACCUUUG | -0.324 |
| CCCUUCC | -0.414 |
| GGUAACC | -0.0573 |
| ACAGUAG | 0.153 |
| AUCGAGC | -0.126 |
| UGGUCAU | 0.0279 |
| UUCCAGG | -0.202 |
| GGUGAAC | -0.0138 |
| CUUAUGU | -0.367 |
| ACUGUGG | 0.0406 |
| CACCCUC | -0.324 |
